Assay results gathered from unrelated publications.
A part holds a random share of what one study measured.

Series 1 — technique: protein-binding microarray; form: double-stranded DNA, one strand shown; sample: in vitro; tested at: 940 nM top; notes: 60-bp whole probe; with: salmon DNA 0.4 mg/ml; relative to: random background probes; reading: higher = stronger binding; constant ends, left off below: GCCTAGCAC … GTCTTGATTCGCTTGACGCTGCTG
Target: Interferon regulatory factor 5, full length, phosphomimetic (IRF5, Homo sapiens, UniProt Q13568-2, residues 1-514, S451D/S453D/S456D/S462D)
Sequence	fitted relative affinity
TTGGGTTTCGACACTGGGTTAGTGCTA	6.62 z-score
TTAGGACTGGGTTTTGGTTAGTGCTAG	0.82 z-score
TTAGGTCTCCTAATGCTTTAGTGCTAG	-0.491 z-score
TTTGGTTCCGGTTTCGGTTAGTGCTAG	10.3 z-score
TCATTTTTTTTTTTTGGACTGTGCTAG	1.11 z-score
GACGGTTTCGGGTAGCGGGACGTGCTA	9.22 z-score
TTATATATCAGACTGGATTAGTGCTAG	-0.125 z-score
GACGGTCTTGGTCTCGGGACGTGCTAG	0.709 z-score
TTAGGCCTCCTTTTCCTTTAGTGCTAG	0.297 z-score
TTAAGTATCCTTATCCTTTAGTGCTAG	0.494 z-score
GACGATTTCAGACTGGATACGTGCTAG	-0.378 z-score
TCACTTTTATGCTCTTTCACTGTGCTA	1.87 z-score
GACGGACTGGGGTAACGGGACGTGCTA	-0.172 z-score
TCAAATGTCCTCCTCTCACTGTGCTAG	0.899 z-score
ATAACCTTGAACTTCGGCCTGTGCTAG	-0.127 z-score
TTAGGAATCGACTTTCGGTTAGTGCTA	3.19 z-score
GACGGACTGGGTACCGGGACGTGCTAG	-0.548 z-score
TCATCAATCATTTTCGTACTGTGCTAG	0.865 z-score
GACGATTTCGGGTTTTGAGACGTGCTA	0.471 z-score
TTAGGTATCTTTCTCCTTTAGTGCTAG	1.02 z-score
TTAGGACTGGACACCGGGTTAGTGCTA	-0.581 z-score
ATAGTGATAGCTCTGGTAAAGTGCTAG	-0.668 z-score
TTAGGTTTCGACTATCGGCTAGTGCTA	9.24 z-score
TCAACTTTCTTTTGCTTACTGTGCTAG	1.75 z-score
GACGGTATCGCGACTGGGGACGTGCTA	0.565 z-score

Series 2 — technique: RNA Bind-n-Seq; form: RNA; sample: in vitro; tested at: 200 nM; notes: whole 134-nt RNA, ends assumed; with: 150 mM LiCl; relative to: input library; reading: higher = stronger binding; all molecules: 7-deaza-guanosine replaces G
Target: Fragile X messenger ribonucleoprotein 1, C-terminal low-complexity region (Fmr1, Mus musculus, UniProt P35922)
Sequence	log2 enrichment
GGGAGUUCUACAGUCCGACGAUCGCAGGAAGUAAAAACAAAUGGAAAUGCUUCGGAUAGUGGCAGGGGUGGGUGUUGCUAAGGAAAGGGUGGGAUGGGAGUGGGUAAAGAGUUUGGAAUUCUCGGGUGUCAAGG	1.26
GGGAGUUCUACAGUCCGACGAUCGUCCUGUGCUACACAUCGUAUGUACCGAAUCAAAUUUUUAAAUUUAAAUUUUUUUAAAAAAGUAUUAUGUUACGCCGUUCGGAUCUGCACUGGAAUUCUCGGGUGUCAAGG	-2.88
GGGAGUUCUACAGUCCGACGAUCCACAGACAACACGCACCCACACAGACACAGAGGGAAGGGGUUGAAAUGGGGACAGGGUGCACAGCAGGGCGGGGUAGGACCCCAGCCCCUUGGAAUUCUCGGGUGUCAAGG	-1.05
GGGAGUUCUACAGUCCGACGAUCAAGUCCUGUGCUACACAUCGUAUGUACCGAAUCAAACCCAAAUUUUUAAAUUUAAAAAAGUAUUAUGUUACGCCGUUCGGAUCUGCACUUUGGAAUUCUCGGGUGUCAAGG	-1.33
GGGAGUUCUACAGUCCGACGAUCGUCCUGUGCUACACAUCGUAUGUACCGAAUCAAAUUUAAAUUUUUAAACCCCCCCAAAAAAGUAUUAUGUUACGCCGUUCGGAUCUGCACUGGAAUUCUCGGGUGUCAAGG	1.65
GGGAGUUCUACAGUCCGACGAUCACCAUGCAGGUGGGCAUCUUUGGGAAGUGGGGCAAGGGGGGGAUAGGGAGGGGGGUAGCACUUUGGGAACAGGUGGUCCCAGGUCGUUUCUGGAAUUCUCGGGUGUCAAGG	1.69
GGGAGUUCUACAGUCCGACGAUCACCAUGCAGGUGGGCAUCUUUGGGAAGUGGGGCAAGGGGGGGAGAGGGAGGGGGGUAACACUUUGGGAACAGGUGGUCCCAGGUCGUUUCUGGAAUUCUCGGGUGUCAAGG	1.4
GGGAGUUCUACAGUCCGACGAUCGCAGGAAGUAAAAACAAAUGGAAAUGCUUCGGAUAGUGGCAGGGGUGGGGGUUGCUAAGGAAAGGGUGGGAUGGGAGUGGAAAAAGAGUUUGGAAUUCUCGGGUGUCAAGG	1.37
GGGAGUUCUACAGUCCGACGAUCUGGCCCUGGUGGCAUGCGGGGAGGAAGAGGUGGCCUCAUGGAUCGUGGUGGUCCAGGUGGAAUGUUCAGAGGUGGCCGUGGUGGAGACAGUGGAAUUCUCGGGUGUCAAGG	-0.625
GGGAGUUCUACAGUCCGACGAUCUCCUGUGCUACACAUCGUAUGUACCGAAUCAAAUUUUUAAAUUUUUUUAAAUUUUUAAAAAAGUAUUAUGUUACGCCGUUCGGAUCUGCAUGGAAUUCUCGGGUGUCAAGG	-1.88
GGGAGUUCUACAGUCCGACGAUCUCCUCAAGUCCUGUGCUACACAUCGUAUGUACCGAAUCGGCGGCGGGGCGGAAAGUAUUAUGUUACGCCGUUCGGAUCUGCACUUCCAGCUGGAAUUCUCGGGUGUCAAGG	0.663

Series 3 — technique: protein binding microarray; form: double-stranded DNA, one strand shown; sample: in vitro; tested at: not given; relative to: not given; reading: higher = stronger binding
Target: Histone acetyltransferase KAT6A, winged helix 1, GST fusion (KAT6A, Homo sapiens, UniProt Q92794, residues 1-85)
Notes: 8-mer, flanks averaged, mean of 2 arrays, mostly near background
Target sequence (chain): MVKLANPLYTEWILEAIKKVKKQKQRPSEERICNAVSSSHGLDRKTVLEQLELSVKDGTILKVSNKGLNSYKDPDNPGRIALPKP
Sequence	E-score
ATACTAAC	-0.0221
CGATAGAC	0.0435
CGCGGAAG	0.327
ATTTTCAG	-0.18
ACTAATGG	-0.258
AAGTAACC	0.00626
ACAAGTCC	-0.0422
GGTACAAA	-0.144
GACTGTCC	0.0613
GAAAGCCC	0.0672
CCCGGGAA	0.332
GCCAAACA	0.0449
CATATAGC	0.115
CTGCTCCA	-0.178
AGACGGGA	0.183
AACTGGAG	-0.129
ACGAAGCG	0.131
CCACGAAC	-0.0816
ATGGTGAA	-0.145

Series 4 — technique: RNA Bind-n-Seq; form: RNA; sample: in vitro; tested at: not given; notes: RNA with constant flanks, ends assumed; relative to: input RNA pool; reading: higher = stronger binding
Target: RING finger protein unkempt homolog, zinc fingers 1-6, GST-SBP tag (UNK, Homo sapiens, UniProt Q9C0B0, residues 30-357)
Chain of UniProt Q9C0B0 (30-357, looked up): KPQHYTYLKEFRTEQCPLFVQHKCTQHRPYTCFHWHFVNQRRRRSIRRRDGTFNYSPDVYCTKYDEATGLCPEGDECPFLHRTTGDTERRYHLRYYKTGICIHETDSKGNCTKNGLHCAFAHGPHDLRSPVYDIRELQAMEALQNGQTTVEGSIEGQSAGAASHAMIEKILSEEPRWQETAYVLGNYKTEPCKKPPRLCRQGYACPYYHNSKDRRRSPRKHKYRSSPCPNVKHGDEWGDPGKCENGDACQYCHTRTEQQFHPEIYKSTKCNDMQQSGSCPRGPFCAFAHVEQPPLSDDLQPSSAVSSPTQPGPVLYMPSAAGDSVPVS
Sequence	bound/input enrichment
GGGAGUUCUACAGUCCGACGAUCAGCACAUGGUUUGGGACUUGCACGUUCUGCCAUGGAGGAGUCUUCAGUGACAGUUGGCACAACCGACGUUUCUUAUCUGCCCAGUUCAUCGGAAUACAGCCUUGGCCGAUGUAAACACACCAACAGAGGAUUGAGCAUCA	0.26 ratio
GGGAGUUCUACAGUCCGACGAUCACCCGUUACAUUCAGGGAACAGGUGGUGAUGAGGUUGAUGAUUCUAUGGGUGUAAAUGACACCGAUAUAAGCCUGUACGUCCCAAGAGAUGUAGAAGAGACAGGUAUCACUGUGGCCAGUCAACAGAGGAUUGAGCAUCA	0.174 ratio
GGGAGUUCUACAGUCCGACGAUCGAUGAAAAGCCAGUGAGUGUUAAUGAAGUACCAGACUACCAUGAGGAUAUUCACACAUACCUCCGGGAAAUGGAGGUUAAAUGUAAACCUAAAGUGGGUUACAUGAAGAAACAGCCAGACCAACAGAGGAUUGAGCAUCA	0.189 ratio
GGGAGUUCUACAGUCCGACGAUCUCUCUUCUUACUCAUUACUGCAAAUUGAUUGUCUUUCCCCCCUCCCUCCAGUACCAUAAUCUCCGAGACAAACCUUAAAACAGCUGUUUUUAGGCUGUUCCUUGUACUCUUAGGAUAUUUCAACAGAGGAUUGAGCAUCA	1.36 ratio
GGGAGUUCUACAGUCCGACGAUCGAAUGGCUGGAAAGCCACCAGGAUGCGGACAUUGAAGACUUUAAAGCCAAAAAGAAGGAACCCGAAGAAAUUGUUCAGCCAAUUAUCAGCAAACUCUAUGGAAGUGGAGGCCCUCCCCCACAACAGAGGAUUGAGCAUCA	0.192 ratio
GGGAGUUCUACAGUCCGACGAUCCUGCGCUGUCCGCCCUGCGGGGGAGGAACCCGGAGCACGCAGCAGAGAUGUCAGCUUAUUUACCGGAAUUGUCCAAAGCCACAGUCAUGGUGGAUGUAGGAAAGUGGCCAAUCUUCACUCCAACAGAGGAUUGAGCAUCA	0.356 ratio
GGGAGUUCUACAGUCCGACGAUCCAAAAUUACCAAGAAUACAAUCUGGCCAACAUCAUCUACUACUCUCUGAAGGAGUCCACCACCCGUGAGCAGAGUGCCAGGAUGACAGCCAUGGACAAUGCCAGCAAGAAUGCUUCUGAGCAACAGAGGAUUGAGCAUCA	0.171 ratio
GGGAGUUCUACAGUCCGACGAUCGUUCUCAGUAGUCCGAACUCUAAUAUGAGCAGCAUGGUAGUUACAGCCAAUGGUAAUGACCGUAAAAAAUUUAAAGGAGAAGAUAAAAUGGAUGGUGCUCCUUCUCGUGUACUUCAUAUUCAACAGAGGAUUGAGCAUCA	0.959 ratio
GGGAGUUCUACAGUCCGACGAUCGCUGGAUAUGGAGACAUUUACCUCAAUGCUGGUCCCAUGUUGUUUAGUGGAGACAAGGACCACCGAUUUGAAUAUAGCCAUGGUCCUAUUGCAGUCCUGGCAAACAGCAGUGACCCUUCCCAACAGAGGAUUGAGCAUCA	0.126 ratio
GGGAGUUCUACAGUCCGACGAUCAAAGAACUACUUGCAGAGAUAGGUUCAUUAUCUCUUCAUUGUACCAUAGAUGAGAAGCGGUCCGCUGGCUAUUGUCAAGCGUGUGAUGUUCUUGUACCUUCUUCUGAUAAUAACUCUCAACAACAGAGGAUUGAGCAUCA	0.28 ratio
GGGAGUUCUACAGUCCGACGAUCCUACCUUCUCGUCUUUAUAGUGCCACAAUUUAUACAGUUCUGUGUUUGACCCGUCGUCUUCACCGCCUGCAGUUCUUGCCAUUGGCUCCGUUAGGUUUGUCUUCACCCACCAGCUUCAUUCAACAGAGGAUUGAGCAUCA	0.656 ratio

Series 5 — technique: RNAcompete; form: RNA; sample: in vitro; tested at: 20 nM; notes: 7-mer, probes averaged, single round; relative to: mean of 7-mers; reading: higher = stronger binding
Target: PABPC1L2, full length, GST fusion (mouse, UniProt A0ABA7IW68)
Target sequence (chain): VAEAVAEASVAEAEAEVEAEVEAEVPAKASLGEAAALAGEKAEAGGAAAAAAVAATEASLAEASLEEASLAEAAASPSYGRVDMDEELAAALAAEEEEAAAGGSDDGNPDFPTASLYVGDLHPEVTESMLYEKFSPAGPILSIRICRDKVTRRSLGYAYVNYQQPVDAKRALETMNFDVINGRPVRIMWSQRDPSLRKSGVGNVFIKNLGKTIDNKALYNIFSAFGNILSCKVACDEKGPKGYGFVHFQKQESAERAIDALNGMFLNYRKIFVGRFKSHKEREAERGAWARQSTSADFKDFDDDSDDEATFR
Sequence	7-mer Z-score
UCGUAGU	-0.38
CUCGGUG	-0.204
CUCACCA	-0.24
GUAAUUC	-0.222
AGAAACG	0.481
ACGCUCA	-0.0264
UUCUAGU	-0.28
AAUACUG	0.189
UGUUUCG	-0.527
CGGAUAC	-0.05
GCGCGUU	-0.228
CACUUUC	-0.249
GGUUCAA	0.0334
UUUACCG	-0.222
GUACUUC	-0.277
AUACCGA	-0.271
CAACAUA	0.175
UGGGUAC	0.14
CAGGGCG	0.0533

Repeated from above (series 2):
Sequence	log2 enrichment
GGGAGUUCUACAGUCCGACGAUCGCAGGAAGUAAAAACAAAUGGAAAUGCUUCGGAUAGUGGCAGGGGUGGGGGUUGCUAAGGAAAGGGUGGGAUGGGAGUGGAAAAAGAGUUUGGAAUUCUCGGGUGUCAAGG	1.37
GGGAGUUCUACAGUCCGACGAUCACCAUGCAGGUGGGCAUCUUUGGGAAGUGGGGCAAGGGGGGGAGAGGGAGGGGGGUAACACUUUGGGAACAGGUGGUCCCAGGUCGUUUCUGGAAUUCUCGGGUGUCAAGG	1.4
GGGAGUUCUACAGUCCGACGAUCCACAGACAACACGCACCCACACAGACACAGAGGGAAGGGGUUGAAAUGGGGACAGGGUGCACAGCAGGGCGGGGUAGGACCCCAGCCCCUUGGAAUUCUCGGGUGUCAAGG	-1.05
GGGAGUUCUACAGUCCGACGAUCGUCCUGUGCUACACAUCGUAUGUACCGAAUCAAAUUUUUAAAUUUAAAUUUUUUUAAAAAAGUAUUAUGUUACGCCGUUCGGAUCUGCACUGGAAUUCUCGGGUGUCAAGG	-2.88
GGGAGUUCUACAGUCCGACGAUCAAGUCCUGUGCUACACAUCGUAUGUACCGAAUCAAACCCAAAUUUUUAAAUUUAAAAAAGUAUUAUGUUACGCCGUUCGGAUCUGCACUUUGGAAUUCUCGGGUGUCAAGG	-1.33
